Results of several laboratories.
ABL1 F317I non-phosphorylated: Tyrosine-protein kinase ABL1, non-phosphorylated (ABL1, Homo sapiens, UniProt P00519, F317I)
Sequence of UniProt P00519 (whole entry, unmodified, looked up): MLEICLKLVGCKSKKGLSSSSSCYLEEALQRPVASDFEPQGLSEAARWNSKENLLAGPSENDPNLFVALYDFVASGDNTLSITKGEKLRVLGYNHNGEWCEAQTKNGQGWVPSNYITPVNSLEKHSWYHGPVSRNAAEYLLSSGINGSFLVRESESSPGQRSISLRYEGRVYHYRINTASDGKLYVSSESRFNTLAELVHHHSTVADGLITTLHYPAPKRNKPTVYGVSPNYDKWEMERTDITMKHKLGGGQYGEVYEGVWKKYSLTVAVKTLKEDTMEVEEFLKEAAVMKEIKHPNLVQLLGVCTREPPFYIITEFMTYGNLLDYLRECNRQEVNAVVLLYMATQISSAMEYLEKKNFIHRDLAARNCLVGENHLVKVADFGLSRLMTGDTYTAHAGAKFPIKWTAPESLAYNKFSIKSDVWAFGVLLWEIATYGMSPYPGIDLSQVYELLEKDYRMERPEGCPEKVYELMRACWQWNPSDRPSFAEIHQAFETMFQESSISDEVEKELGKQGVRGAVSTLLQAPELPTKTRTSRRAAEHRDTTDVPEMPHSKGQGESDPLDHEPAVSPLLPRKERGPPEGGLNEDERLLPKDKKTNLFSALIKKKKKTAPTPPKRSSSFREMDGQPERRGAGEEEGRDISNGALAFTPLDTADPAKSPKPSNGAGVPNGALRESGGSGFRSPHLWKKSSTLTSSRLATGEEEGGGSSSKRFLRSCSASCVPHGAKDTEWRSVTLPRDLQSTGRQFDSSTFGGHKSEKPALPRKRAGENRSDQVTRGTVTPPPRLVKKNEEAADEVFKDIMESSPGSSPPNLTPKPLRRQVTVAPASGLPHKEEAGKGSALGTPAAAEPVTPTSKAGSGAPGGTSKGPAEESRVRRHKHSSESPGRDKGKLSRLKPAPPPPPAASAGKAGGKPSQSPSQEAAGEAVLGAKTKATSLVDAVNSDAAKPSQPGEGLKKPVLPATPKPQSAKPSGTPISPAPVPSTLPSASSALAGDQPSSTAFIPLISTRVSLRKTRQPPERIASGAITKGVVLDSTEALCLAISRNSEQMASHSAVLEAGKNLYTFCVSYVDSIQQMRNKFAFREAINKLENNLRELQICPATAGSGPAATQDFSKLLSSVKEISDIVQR

C=CC(=O)N1CCc2ccc(-n3c(=O)ccc4cnc5ccc(-c6cnn(C)c6)cc5c43)cc21
remaining binding (Tyrosine-protein kinase ABL1, non-phosphorylated (ABL1, Homo sapiens, UniProt P00519); KINOMEscan; 1 µM; relative to: DMSO control): 45%

CC(C)=CC1OC(C)(C)C2C=C3C(=O)C(Cl)=CC(O)C3C3C(O)C4OC4C(=O)C132 (centres unmarked)
remaining binding (Tyrosine-protein kinase ABL1, non-phosphorylated (ABL1, Homo sapiens, UniProt P00519, F317L); cell-free assay, competition with immobilised ligand; 10 µM): 94%

CNC1C[S+]2CC[S+]3CC[S+](C1)[Ru-4]321([N]=C=S)[n]2c3ccc(OC)cc3c3c4c(c5cc(F)c[n+]1c5c32)C(=O)NC4=O (centres unmarked)
remaining binding (ABL1 F317I non-phosphorylated; KinomeScan; 0.1 µM; relative to: untreated): 92%

C=CC(=O)N1CCCC(n2c(=O)c3ncccc3n(Cc3ccc(Oc4ccccc4)cc3)c2=O)C1 (centres unmarked)
remaining binding (ABL1 F317I non-phosphorylated; cell-free assay, competition with immobilised ligand; 1 µM): 95%

COc1cc(Nc2nccc(-c3cnn4nc(OC)ccc34)n2)cc(C(F)(F)F)c1
remaining binding (ABL1 F317I non-phosphorylated; binding; 1 µM): 100%

CNC(=O)C1CCN(c2cc(C)c(F)cc2NC(=O)c2ccc(-c3cc(O)ccc3C)c(C)c2)CC1
remaining binding (Tyrosine-protein kinase ABL1, phosphorylated (ABL1, Homo sapiens, UniProt P00519, F317L); binding, competition with immobilised ligand; 1 µM): 20%

Cc1ccc(-c2c(/C=C(\C#N)C(=O)NC(C)C)n(CCCO)c3ncnc(N)c23)cc1
remaining binding (Tyrosine-protein kinase ABL1, phosphorylated (ABL1, Homo sapiens, UniProt P00519, M351T); cell-free assay, competition with immobilised ligand; 1 µM): 100%

Cc1cnc2nc1Nc1cccc(c1)COC/C=C/COCc1cc(ccc1OCCN1CCOCC1)N2
remaining binding (Tyrosine-protein kinase ABL1, phosphorylated (ABL1, Homo sapiens, UniProt P00519); binding; 0.1 µM): 60%

Excerpt of the above:
Cc1ccc(-c2c(/C=C(\C#N)C(=O)NC(C)C)n(CCCO)c3ncnc(N)c23)cc1
remaining binding (Tyrosine-protein kinase ABL1, phosphorylated (ABL1, Homo sapiens, UniProt P00519, M351T); cell-free assay, competition with immobilised ligand; 1 µM): 100%
